Assay results gathered from unrelated publications.
Compare with care: the assays were run in different laboratories.

| Compound | organism | test | system | conditions | MIC |
| --- | --- | --- | --- | --- | --- |
| CN[C@H](CC(C)C)C(=O)N[C@H]1C(=O)N[C@@H](CC(N)=O)C(=O)N[C@H]2C(=O)N[C@H]3C(=O)N[C@H](C(=O)N[C@H](C(=O)O)c4cc(O)cc(O)c4-c4cc3ccc4O)[C@H](O)c3ccc(c(Cl)c3)Oc3cc2cc(c3O[C@@H]2O[C@H](CO)[C@@H](O)[C@H](O)[C@H]2O[C@H]2C[C@](C)(N)[C@H](O)[C@H](C)O2)Oc2ccc(cc2Cl)[C@H]1O | Enterococcus | – | VRE 700221 | – | > 100 µM |
| CC[C@H](C)C[C@H](C)CCCCCCCCC(=O)N[C@H]1C[C@@H](O)[C@@H](NCCN)NC(=O)[C@@H]2[C@@H](O)CCN2C(=O)[C@H]([C@H](O)CCN)NC(=O)[C@H]([C@H](O)[C@@H](O)c2ccc(O)cc2)NC(=O)[C@@H]2C[C@@H](O)CN2C(=O)[C@H]([C@@H](C)O)NC1=O | Kluyveromyces marxianus | broth dilution | ATCC 204093 | 48 h, 37 °C | 0.25 µg/mL |
| N=C(N)NCCC[C@H](NC(=O)[C@H](Cc1c[nH]c2ccccc12)NC(=O)[C@H](CCCNC(=N)N)NC(=O)[C@H](Cc1c[nH]c2ccccc12)NC(=O)[C@H](Cc1c[nH]c2ccccc12)NC(=O)[C@H](Cc1c[nH]c2ccccc12)NC(=O)[C@H](CCCNC(=N)N)NC(=O)[C@H](Cc1c[nH]c2ccccc12)NC(=O)[C@H](CCCNC(=N)N)NC(=O)CN)C(N)=O | Candida albicans | broth microdilution | 58288, RPMI 1640-MOPS | 48 h, 30 °C | 8 µM |
| CC(C)(C)OCC1NC(=O)C(C(=O)NC(C(=O)NC2C(=O)N3C2SC(C)(C)C3C(=O)O)c2ccccc2)=C1O (stereo not shown) | Escherichia coli | broth microdilution | Keio mutant JW5195-1 | 18 h | 50 µg/mL |
| CS(=O)(=O)Nc1ncn(-c2cc(F)c(COc3ccc(OS(=O)(=O)F)cc3)c(F)c2)n1 | Mycobacterium avium | – | – | – | 6.25 µM |
| C[C@H](NC(=O)[C@H](CCCNC(=N)N)NC(=O)[C@H](Cc1c[nH]c2ccccc12)NC(=O)[C@H](CCCNC(=N)N)NC(=O)[C@H](Cc1c[nH]c2ccccc12)NC(=O)[C@H](Cc1c[nH]c2ccccc12)NC(=O)[C@H](Cc1c[nH]c2ccccc12)NC(=O)[C@H](CCCNC(=N)N)NC(=O)[C@H](Cc1c[nH]c2ccccc12)NC(=O)[C@@H](N)CCCNC(=N)N)C(N)=O | Candida albicans | broth microdilution | 56452, RPMI 1640-MOPS | 48 h, 30 °C | 8 µM |
| CC1(C)SC2C(NC(=O)C(NC(=O)C3=C(O)C(Cc4ccccc4)NC3=O)c3ccccc3)C(=O)N2C1C(=O)O (stereo not shown) | Escherichia coli | broth microdilution | Keio mutant JW0587-1 | 18 h, enterobactin-related gene | 12.5 µg/mL |
| CC(C)C[C@H](NC(=O)[C@H](CCCNC(=N)N)NC(=O)[C@H](Cc1c[nH]c2ccccc12)NC(=O)[C@H](CCCNC(=N)N)NC(=O)[C@H](Cc1c[nH]c2ccccc12)NC(=O)[C@H](Cc1c[nH]c2ccccc12)NC(=O)[C@H](Cc1c[nH]c2ccccc12)NC(=O)[C@H](CCCNC(=N)N)NC(=O)[C@H](Cc1c[nH]c2ccccc12)NC(=O)[C@H](CCCNC(=N)N)NC(=O)CN)C(N)=O | Candida albicans | broth microdilution | CGMCC 2.209, RPMI 1640-MOPS | 48 h, 30 °C, added: MgCl2 1 mM | 64 µM |
| CC(C)C[C@H](NC(=O)[C@H](Cc1c[nH]c2ccccc12)NC(=O)[C@H](CC(C)C)NC(=O)[C@@H](NC(=O)[C@H](CC(C)C)NC(=O)[C@H](CCCNC(=N)N)NC(=O)[C@@H](N)CCCNC(=N)N)[C@@H](C)O)C(=O)N[C@H](C(=O)N[C@@H](CC(C)C)C(=O)N[C@@H](CCCNC(=N)N)C(=O)N[C@@H](CCCNC(=N)N)C(N)=O)[C@@H](C)O | Lactiplantibacillus plantarum | – | 7469, probiotic strain | 24 h, 37 °C, tested up to 128 µM | 32 µM |
| CC(C)C[C@H](NC(=O)[C@H](CCCNC(=N)N)NC(=O)[C@H](Cc1c[nH]c2ccccc12)NC(=O)[C@H](CCCNC(=N)N)NC(=O)[C@H](Cc1c[nH]c2ccccc12)NC(=O)[C@H](Cc1c[nH]c2ccccc12)NC(=O)[C@H](Cc1c[nH]c2ccccc12)NC(=O)[C@H](CCCNC(=N)N)NC(=O)[C@H](Cc1c[nH]c2ccccc12)NC(=O)[C@@H](N)CCCNC(=N)N)C(N)=O | Candida albicans | broth microdilution | CGMCC 2.209, RPMI 1640-MOPS | 48 h, 30 °C, added: NH4Cl 6 µM | 32 µM |
| C[C@@H](O)[C@H]1C(=O)N2C(C(=O)O)=C(SCCN=CN)C[C@H]12 | Klebsiella pneumoniae | – | K2 | at emergence of KPC-137, added: ceftazidime-avibactam, avibactam fixed | 32 µg/mL |
| CC1(C)S[C@@H]2[C@H](NC(=O)[C@H](N)c3ccccc3)C(=O)N2[C@H]1C(=O)O | Escherichia coli | broth microdilution | Keio mutant JW5195-1 | 18 h | 6.25 µg/mL |
| N=C(N)NCCC[C@H](NC(=O)[C@H](Cc1c[nH]c2ccccc12)NC(=O)[C@H](CCCNC(=N)N)NC(=O)[C@H](Cc1c[nH]c2ccccc12)NC(=O)[C@H](Cc1c[nH]c2ccccc12)NC(=O)[C@H](Cc1c[nH]c2ccccc12)NC(=O)[C@H](CCCNC(=N)N)NC(=O)[C@H](Cc1c[nH]c2ccccc12)NC(=O)[C@@H](N)CCCNC(=N)N)C(=O)N[C@@H](Cc1c[nH]c2ccccc12)C(N)=O | Candida albicans | broth microdilution | SP3903, RPMI 1640-MOPS | 48 h, 30 °C | 8 µM |
| [O-][N+]1=C(c2ccc(Cl)cc2)C2=NCCN2c2ccccc21 | Bacteroides spp. and Parabacteroides distasonis | – | – | – | 0.06 to 0.125 µg/mL |
| CC(C)C1NC(=O)C(C(=O)NC(C(=O)NC2C(=O)N3C2SC(C)(C)C3C(=O)O)c2ccccc2)=C1O (stereo not shown) | Escherichia coli | broth microdilution | ATCC 35218, low-level TEM-1 | no clavulanic acid | > 200 µg/mL |
| CN[C@H](CC(C)C)C(=O)N[C@H]1C(=O)N[C@@H](CC(N)=O)C(=O)N[C@H]2C(=O)NC3C(=O)N[C@H](C(=O)N[C@H](C(=O)NCCC[N+](C)(C)C)c4cc(O)cc(O)c4-c4cc3ccc4O)[C@H](O)c3ccc(c(Cl)c3)Oc3cc2cc(c3OC2OC(CO)C(O)[C@H](O)[C@@H]2O[C@H]2CC(C)(NCc3ccc(-c4ccc(Cl)cc4)cc3)[C@H](O)[C@H](C)O2)Oc2ccc(cc2Cl)[C@H]1O (stereo partly shown) | Enterococcus faecium | – | VanA VRE ATCC BAA-2317 | no LTA | 0.3 µg/mL |
| CCN1CCN(C(=O)N[C@@H](C(=O)N[C@@H]2C(=O)N3[C@@H]2SC(C)(C)[C@@H]3C(=O)O)c2ccccc2)C(=O)C1=O | Escherichia coli | broth microdilution | isolate IU 356 A, KPC-3, VIM-1, TEM | no clavulanic acid | > 200 µg/mL |
| CC[C@H](C)[C@H](NC(=O)[C@H](CCCNC(=N)N)NC(=O)[C@H](Cc1c[nH]c2ccccc12)NC(=O)[C@H](CCCNC(=N)N)NC(=O)[C@H](Cc1c[nH]c2ccccc12)NC(=O)[C@H](Cc1c[nH]c2ccccc12)NC(=O)[C@H](Cc1c[nH]c2ccccc12)NC(=O)[C@H](CCCNC(=N)N)NC(=O)[C@H](Cc1c[nH]c2ccccc12)NC(=O)[C@H](CCCNC(=N)N)NC(=O)CN)C(N)=O | Candida albicans | broth microdilution | CGMCC 2.209, RPMI 1640-MOPS | 48 h, 30 °C, added: MgCl2 1 mM | 8 µM |
| CC1(C)SC2C(NC(=O)C(NC(=O)C3=C(O)CNC3=O)c3ccccc3)C(=O)N2C1C(=O)O (stereo not shown) | Escherichia coli | broth microdilution | isolate IU 356 A, KPC-3, VIM-1, TEM | added: clavulanic acid 6 µg/mL | > 200 µg/mL |
| CSCC[C@H](NC(=O)[C@H](CCCCN)NC(=O)[C@H](CCSC)NC(=O)[C@H](CCCCN)NC(=O)[C@H](CC(C)C)NC(=O)[C@H](CC(C)C)NC(=O)[C@H](CCCNC(=N)N)NC(=O)[C@H](CC(=O)O)NC(=O)[C@H](CCCCN)NC(=O)[C@H](Cc1c[nH]c2ccccc12)NC(=O)[C@H](Cc1ccc(O)cc1)NC(=O)[C@H](Cc1ccccc1)NC(=O)[C@H](CCCNC(=N)N)NC(=O)[C@@H]1CCCN1C(=O)[C@@H](NC(=O)[C@H](CCCNC(=N)N)NC(=O)[C@@H](N)CO)C(C)C)C(=O)N[C@@H](C)C(=O)O | Staphylococcus haemolyticus | – | – | – | 200 µg/mL |
| CN1CC(O)=C(C(=O)NC(C(=O)NC2C(=O)N3C2SC(C)(C)C3C(=O)O)c2ccccc2)C1=O (stereo not shown) | Escherichia coli | broth microdilution | ATCC 35218, low-level TEM-1 | added: clavulanic acid 6 µg/mL | > 200 µg/mL |
| N=C(N)NCCC[C@H](NC(=O)CN)C(=O)N[C@@H](Cc1c[nH]c2ccccc12)C(=O)N[C@@H](CCCNC(=N)N)C(=O)N[C@@H](Cc1c[nH]c2ccccc12)C(=O)N[C@@H](Cc1c[nH]c2ccccc12)C(=O)N[C@@H](Cc1c[nH]c2ccccc12)C(=O)N[C@@H](CCCNC(=N)N)C(=O)N[C@@H](Cc1c[nH]c2ccccc12)C(=O)N[C@@H](CCCNC(=N)N)C(=O)N[C@@H](Cc1c[nH]c2ccccc12)C(N)=O | Candida albicans | broth microdilution | CGMCC 2.209, RPMI 1640-MOPS | 48 h, 30 °C, added: FeCl3 4 µM | 4 µM |

Repeated from above:
| Compound | organism | test | system | conditions | MIC |
| --- | --- | --- | --- | --- | --- |
| CC1(C)SC2C(NC(=O)C(NC(=O)C3=C(O)C(Cc4ccccc4)NC3=O)c3ccccc3)C(=O)N2C1C(=O)O (stereo not shown) | Escherichia coli | broth microdilution | Keio mutant JW0587-1 | 18 h, enterobactin-related gene | 12.5 µg/mL |
